Assay results of several laboratories.
Parts stem from different laboratories: compare values within a part only. Changes are numbered by the printed parent chain.

Series 1
Target: Sal-like protein 4, full length isoform B (SALL4, Homo sapiens, UniProt Q9UJQ4-2, residues 1-616)
Method: universal PBM
Molecule type: double-stranded DNA, one strand shown
Medium: in vitro
Tested at: not given
Notes: 8-mer, flanks averaged, mean of replicates
Reading: higher = stronger binding
Target sequence (chain): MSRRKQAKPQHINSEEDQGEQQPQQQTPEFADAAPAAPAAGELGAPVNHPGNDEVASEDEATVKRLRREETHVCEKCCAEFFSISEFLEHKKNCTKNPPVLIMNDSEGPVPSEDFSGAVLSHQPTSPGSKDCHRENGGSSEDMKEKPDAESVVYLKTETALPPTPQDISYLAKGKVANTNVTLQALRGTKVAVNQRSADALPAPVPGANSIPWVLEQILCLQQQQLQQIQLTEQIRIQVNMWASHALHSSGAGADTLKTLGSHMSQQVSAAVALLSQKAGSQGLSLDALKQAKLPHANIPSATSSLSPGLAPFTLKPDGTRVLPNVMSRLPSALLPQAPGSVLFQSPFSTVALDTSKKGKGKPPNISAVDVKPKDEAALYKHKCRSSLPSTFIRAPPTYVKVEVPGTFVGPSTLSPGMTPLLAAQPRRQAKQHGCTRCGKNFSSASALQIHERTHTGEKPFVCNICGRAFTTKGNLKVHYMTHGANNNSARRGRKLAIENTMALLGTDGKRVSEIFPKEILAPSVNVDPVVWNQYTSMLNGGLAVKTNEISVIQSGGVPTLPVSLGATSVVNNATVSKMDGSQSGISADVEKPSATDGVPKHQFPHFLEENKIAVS
Sequence	E-score
AAGGCTTC	-0.099
CCGTTTCA	-0.0127
AAGTTGTC	0.0571
AAGCTGGG	-0.122
GCGGGGAC	-0.158
CCTGTTCA	-0.116
ACCGGTAT	-0.232
AGCACTGG	-0.125
AAGGTGGT	0.0544
ACTGTAGC	0.0232
AAGTACTG	0.131
ATTGATTC	0.187
ACCGTCGT	-0.0261
ATGTCGAA	0.0842

Series 2
Target: CCNA1, cyclin fold, Cln2 fusion (human)
Method: yeast growth competition, sequencing
Medium: yeast
Notes: weak parent motif
Baseline: not given
Reading: higher = stronger binding
Starting sequence: WEE1 docking peptide (human); HKTFRKLRLFDTP; partner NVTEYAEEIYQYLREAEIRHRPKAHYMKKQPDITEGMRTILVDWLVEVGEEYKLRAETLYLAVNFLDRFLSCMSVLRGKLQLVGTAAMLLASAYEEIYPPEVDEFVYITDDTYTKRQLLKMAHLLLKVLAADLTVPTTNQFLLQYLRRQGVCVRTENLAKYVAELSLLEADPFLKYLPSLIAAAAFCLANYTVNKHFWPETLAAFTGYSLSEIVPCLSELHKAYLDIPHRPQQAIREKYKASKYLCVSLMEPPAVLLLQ
Variant	normalised enrichment score
HKTFRKLLLFDTP [R8L]	-0.0536
HKTFRKLRRFDTP [L9R]	0.175
HKTGRKLRLFDTP [F4G]	0.296
HKTFRKLRLFDSP [T12S]	0.754
HKTFRKRRLFDTP [L7R]	0.187
HKTFRKLRLQDTP [F10Q]	-0.183
HKTFRKLRLFDAP [T12A]	0.138
HKTFRKLRLFDCP [T12C]	0.228
HKTFRKLRLFDTA [P13A]	0.171
HKTFRKLRLFDTL [P13L]	0.00483
HKTNRKLRLFDTP [F4N]	0.298
HKTFRKLRLFITP [D11I]	-0.191
HKWFRKLRLFDTP [T3W]	-0.146
HKTFRKLRLFDEP [T12E]	0.369

Series 3
Target: RNA binding protein fox-1 homolog 2, RRM domain, GST-SBP tag (RBFOX2, Homo sapiens, UniProt O43251-10, residues 100-194)
Method: RNA Bind-n-Seq
Molecule type: RNA
Medium: in vitro
Tested at: 365 nM
Notes: natural RNA segment, single round, ends assumed
Baseline: no-protein control
Reading: higher = stronger binding
Constant ends, left off below: GGGAGUUCUACAGUCCGACGAUC … UGGAAUUCUCGGGUGCCAA
Target sequence (chain): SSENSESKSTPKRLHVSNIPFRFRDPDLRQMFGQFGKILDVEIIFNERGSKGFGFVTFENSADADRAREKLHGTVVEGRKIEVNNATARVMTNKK
Sequence	RBNS enrichment (R)
CCAUAUUUGUAACUAUCAACUUUUAAAACUUUUAACGUUUUUGUUACAUGCAUUGUAAUUCUGCUUUGUCUAUAAGAUAUGGUCAAGUACAGCUCUGUGAAAGUUCUGAU	0.304
GUGAGGCACGUGCUUUGAAGCAGAUGCCUUCAGCCCUCCCUGCUGGGAGGUGGUCUCUCAAGCUCUGGGUGCUUUUAGUACUUUUUUUUUUUUUUAACUGUAGGGAAGCA	1.84
AAAUUUCUCAUUACUGGGUUAGAAAACAAAGAGGGAUUGCCCUGCACAUUUUCUUUUGUGCUUUUAAAUGUUUCUUAAGUUGGAACAGGUUUCCUCGGGCCUGUUUUGAC	0.59
GGGAAAUCAGGUCUUUAUUGAUAAAGUUAGGGAGAAGAUUGAUGCAAUAGGACAAUUUCCAAUUUAAUUUAGAUCCUCUAAUCUUUCUACAUGGACAAGCUGUUUUCUUU	0.516
AUAUGCUUCUUAAUUAUCAAAUUAUAGUUUCCCAAUUGGGAAACUAAUUGGGGGUGGGUUACAAAACAUUUGAUCCUUGUAAAUACAUUGUACAGAAUAUUUAUUUUUUC	0.418
GUGUAGUUUUCUGUUUUAAAUCCCCCACCCCUGGCUGGGCUCAGUGGCUCACCCCUGUAAUCCCAGCACUUUGGGAGGCCAAGGCGGGUCGAUUACUUGAGGUCAGGAGU	0.466
UGUAUGCUUCCAGGUGGAGGAGAAAGGGGAAUCUCCCAAAAUUUAAAAACAAAUUGGAAGAAUAACCAGGACAGCCAAGUGAAGCAGCCACAGGGACCCAAGCAGUCGAG	0.704
UCACUAGAGGGAAGACCUGGGCAUCCUGCUGGCUCCUCUCUCCGUGGGGCCUGGAGUCUGGUGCUGUUCCCCAGCCAGCCUGGCUGCAGACCUCUCUGGCUGAUACCGCU	0.208

Mixed results
Substance	target	test	test system	setting	scale	measurement	result
PhoQ, residues 284 288 289 292 302 303 QWQEDG	PhoP, residues 12 14 15 18 19 YHFSH (Escherichia coli, UniProt P23836)	Sort-seq, measured: YFP reporter	E. coli	PhoQ-PhoP variant library, together with: 10 µM Mg2+	baseline: high Mg2+ state, higher = stronger signaling	fold induction	8.85

For quick reference, copied from above (series 1):
Sequence	E-score
AAGGCTTC	-0.099
CCGTTTCA	-0.0127
AAGTTGTC	0.0571
AAGCTGGG	-0.122
GCGGGGAC	-0.158
